# Results pooled from the literature.
# Numbered parts are unrelated; each lists some results of a single study. Values joined by “and” are separate records of one study, mostly repeats; a detail may differ.
# Sequence of UniProt Q8WTQ7 (whole entry, looked up): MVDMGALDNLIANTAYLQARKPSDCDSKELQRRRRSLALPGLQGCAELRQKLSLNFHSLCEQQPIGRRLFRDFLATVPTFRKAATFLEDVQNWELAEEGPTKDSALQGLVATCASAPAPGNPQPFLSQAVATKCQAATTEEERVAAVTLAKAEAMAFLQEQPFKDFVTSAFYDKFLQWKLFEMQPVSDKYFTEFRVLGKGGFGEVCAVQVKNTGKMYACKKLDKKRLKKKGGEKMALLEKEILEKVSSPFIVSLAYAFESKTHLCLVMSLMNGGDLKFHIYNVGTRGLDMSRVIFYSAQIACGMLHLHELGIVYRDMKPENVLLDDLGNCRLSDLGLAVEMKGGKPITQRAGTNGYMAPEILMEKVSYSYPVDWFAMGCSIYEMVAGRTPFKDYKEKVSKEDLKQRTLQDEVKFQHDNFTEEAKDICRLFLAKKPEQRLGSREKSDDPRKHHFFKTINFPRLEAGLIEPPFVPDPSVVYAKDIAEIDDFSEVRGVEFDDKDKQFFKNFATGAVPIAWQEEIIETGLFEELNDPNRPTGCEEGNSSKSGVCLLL
# Sequence of UniProt Q9Y2H9 (whole entry, looked up): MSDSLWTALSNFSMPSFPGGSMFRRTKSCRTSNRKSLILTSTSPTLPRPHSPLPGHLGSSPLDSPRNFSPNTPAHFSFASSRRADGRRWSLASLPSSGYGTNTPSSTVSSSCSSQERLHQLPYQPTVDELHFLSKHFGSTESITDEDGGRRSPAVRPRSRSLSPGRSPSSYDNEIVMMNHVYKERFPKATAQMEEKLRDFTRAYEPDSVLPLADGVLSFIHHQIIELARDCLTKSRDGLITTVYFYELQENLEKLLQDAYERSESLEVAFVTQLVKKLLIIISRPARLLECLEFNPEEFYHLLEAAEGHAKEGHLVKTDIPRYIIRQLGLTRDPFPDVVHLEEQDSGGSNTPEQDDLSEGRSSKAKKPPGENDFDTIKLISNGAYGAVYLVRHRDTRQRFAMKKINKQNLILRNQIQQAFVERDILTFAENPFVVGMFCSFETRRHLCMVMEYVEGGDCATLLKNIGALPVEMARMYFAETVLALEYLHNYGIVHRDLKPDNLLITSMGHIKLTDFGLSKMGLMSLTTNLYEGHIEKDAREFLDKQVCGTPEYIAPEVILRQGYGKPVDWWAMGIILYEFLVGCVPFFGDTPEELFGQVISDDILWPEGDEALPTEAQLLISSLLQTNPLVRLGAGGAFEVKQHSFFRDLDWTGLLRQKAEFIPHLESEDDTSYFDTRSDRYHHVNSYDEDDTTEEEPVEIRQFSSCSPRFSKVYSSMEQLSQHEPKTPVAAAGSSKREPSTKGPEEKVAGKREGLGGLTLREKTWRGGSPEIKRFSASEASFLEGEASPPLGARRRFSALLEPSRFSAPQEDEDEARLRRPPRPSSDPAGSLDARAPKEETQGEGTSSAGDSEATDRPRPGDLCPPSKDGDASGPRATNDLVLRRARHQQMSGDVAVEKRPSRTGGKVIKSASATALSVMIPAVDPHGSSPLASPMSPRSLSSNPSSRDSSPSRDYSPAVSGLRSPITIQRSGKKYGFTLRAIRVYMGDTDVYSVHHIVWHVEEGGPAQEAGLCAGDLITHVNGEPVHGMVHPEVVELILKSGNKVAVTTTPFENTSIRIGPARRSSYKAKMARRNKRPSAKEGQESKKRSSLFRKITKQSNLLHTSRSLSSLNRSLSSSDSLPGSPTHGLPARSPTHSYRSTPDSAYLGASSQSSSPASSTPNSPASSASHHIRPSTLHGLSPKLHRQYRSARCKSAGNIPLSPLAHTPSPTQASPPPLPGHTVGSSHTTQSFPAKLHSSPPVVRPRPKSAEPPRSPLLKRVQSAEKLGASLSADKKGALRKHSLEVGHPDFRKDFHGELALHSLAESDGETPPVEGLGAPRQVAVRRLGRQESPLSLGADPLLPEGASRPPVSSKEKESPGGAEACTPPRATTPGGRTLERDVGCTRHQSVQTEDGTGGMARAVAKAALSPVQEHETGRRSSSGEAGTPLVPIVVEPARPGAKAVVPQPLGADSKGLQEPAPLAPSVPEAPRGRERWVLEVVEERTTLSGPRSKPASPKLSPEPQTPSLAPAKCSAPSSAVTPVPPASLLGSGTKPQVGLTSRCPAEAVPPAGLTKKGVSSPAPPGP
# Sequence of UniProt Q04759 (whole entry, looked up): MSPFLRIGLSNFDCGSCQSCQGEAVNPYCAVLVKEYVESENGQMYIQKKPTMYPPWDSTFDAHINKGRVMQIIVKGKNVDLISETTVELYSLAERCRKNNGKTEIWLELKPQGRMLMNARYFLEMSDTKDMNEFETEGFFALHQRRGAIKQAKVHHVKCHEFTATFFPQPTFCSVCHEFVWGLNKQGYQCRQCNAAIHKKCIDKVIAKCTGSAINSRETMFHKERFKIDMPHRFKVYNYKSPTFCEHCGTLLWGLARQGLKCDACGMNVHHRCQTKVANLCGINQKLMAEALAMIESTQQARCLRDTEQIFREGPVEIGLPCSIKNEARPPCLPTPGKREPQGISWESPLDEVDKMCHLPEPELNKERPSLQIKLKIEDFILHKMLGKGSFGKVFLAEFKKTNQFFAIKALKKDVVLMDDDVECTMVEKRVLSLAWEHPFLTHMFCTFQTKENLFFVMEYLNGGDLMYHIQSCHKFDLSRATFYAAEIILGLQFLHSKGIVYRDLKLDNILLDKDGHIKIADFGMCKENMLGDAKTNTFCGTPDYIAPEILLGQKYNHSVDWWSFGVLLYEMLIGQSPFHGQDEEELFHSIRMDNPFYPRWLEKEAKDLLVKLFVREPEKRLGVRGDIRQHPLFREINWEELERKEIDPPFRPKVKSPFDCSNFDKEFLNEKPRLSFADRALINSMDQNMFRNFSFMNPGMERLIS
# Sequence of UniProt Q9NQU5 (whole entry, looked up): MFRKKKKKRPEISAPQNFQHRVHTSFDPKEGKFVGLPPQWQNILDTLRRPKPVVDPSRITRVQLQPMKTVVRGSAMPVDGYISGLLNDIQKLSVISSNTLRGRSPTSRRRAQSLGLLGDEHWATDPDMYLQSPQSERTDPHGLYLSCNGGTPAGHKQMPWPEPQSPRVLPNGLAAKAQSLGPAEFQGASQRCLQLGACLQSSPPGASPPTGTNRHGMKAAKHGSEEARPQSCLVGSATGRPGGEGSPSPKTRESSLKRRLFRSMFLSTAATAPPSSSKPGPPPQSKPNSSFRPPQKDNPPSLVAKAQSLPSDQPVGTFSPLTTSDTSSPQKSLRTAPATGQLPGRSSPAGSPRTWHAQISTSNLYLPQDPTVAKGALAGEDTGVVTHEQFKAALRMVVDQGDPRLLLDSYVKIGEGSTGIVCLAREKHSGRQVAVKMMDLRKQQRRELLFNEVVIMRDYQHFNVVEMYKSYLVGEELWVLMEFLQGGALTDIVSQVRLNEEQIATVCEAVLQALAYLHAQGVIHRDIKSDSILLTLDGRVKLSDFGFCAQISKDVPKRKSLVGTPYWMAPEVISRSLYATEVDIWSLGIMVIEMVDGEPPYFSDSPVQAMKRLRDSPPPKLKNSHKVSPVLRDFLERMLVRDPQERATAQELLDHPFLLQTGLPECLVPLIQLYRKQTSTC

# Block 1 — tested at: 1 µM
# SMILES: CC[C@@]1(c2ccccc2)C2=C(CC(C)(C)CC2=O)Nc2n[nH]cc21
target,read-out,technique,reference,remaining binding [%]
"EIF2AK2 (Homo sapiens, UniProt P19525)",binding,competition with immobilised ligand,,83
"MET (Homo sapiens, UniProt P08581, Y1235D)",binding,competition with immobilised ligand,,100
"TAOK3 (Homo sapiens, UniProt Q9H2K8)",binding,competition with immobilised ligand,,100
"PAK6 (Homo sapiens, UniProt Q9NQU5)",binding,competition with immobilised ligand,,100
"FLT3 (Homo sapiens, UniProt P36888, D835Y)",binding,competition with immobilised ligand,,100
"DAPK3 (Homo sapiens, UniProt O43293)",binding,competition with immobilised ligand,,97
"DAPK1 (Homo sapiens, UniProt P53355)",kinase binding,KINOMEscan,DMSO control,68
"CAMK1 (Homo sapiens, UniProt Q14012)",kinase binding,KINOMEscan,DMSO control,100
"EPHB2 (Homo sapiens, UniProt P29323)",binding,competition with immobilised ligand,,100
"DDR2 (Homo sapiens, UniProt Q16832)",kinase binding,KINOMEscan,DMSO control,99
"SRPK3 (Homo sapiens, UniProt Q9UPE1)",kinase binding,KINOMEscan,DMSO control,100
"PRKCQ (Homo sapiens, UniProt Q04759)",binding,competition with immobilised ligand,,73
"MAST1 (Homo sapiens, UniProt Q9Y2H9)",binding,competition with immobilised ligand,,100
"LIM domain kinase 1 (LIMK1, Homo sapiens, UniProt P53667)",kinase binding,KINOMEscan,DMSO control,89
"MTOR (Homo sapiens, UniProt P42345)",binding,competition with immobilised ligand,,67
"BMPR1A (Homo sapiens, UniProt P36894)",kinase binding,KINOMEscan,DMSO control,100
"Ribosomal protein S6 kinase alpha-2, N-terminal kinase domain (RPS6KA2, Homo sapiens, UniProt Q15349)",kinase binding,KINOMEscan,DMSO control,100
"RET (Homo sapiens, UniProt P07949, V804L)",binding,competition with immobilised ligand,,100
"IRAK4 (Homo sapiens, UniProt Q9NWZ3)",binding,competition with immobilised ligand,,98
"MAP3K1 (Homo sapiens, UniProt Q13233)",kinase binding,KINOMEscan,DMSO control,100
"GRK7 (Homo sapiens, UniProt Q8WTQ7)",binding,competition with immobilised ligand,,100
"SGK2 (Homo sapiens, UniProt Q9HBY8)",kinase binding,KINOMEscan,DMSO control,96
"STK11 (Homo sapiens, UniProt Q15831)",kinase binding,KINOMEscan,DMSO control,71
"LIM domain kinase 2 (LIMK2, Homo sapiens, UniProt P53671)",binding,competition with immobilised ligand,,98

# Block 2 — read-out: thermal unfolding; technique: differential scanning fluorimetry; tested at: 5.5 µM; direction: higher = more unfolded
# Compound: C[C@@H]1CN(c2ccc(-c3cc(C(=O)NCCOCCOCCOCCOCCOCCOCCNC(=O)/C=C/c4[nH]cc(C(=O)N[C@@H](CC(N)=O)c5ccc(F)c(Cl)c5)c4-c4ccc(Cl)cc4F)ccc3F)cc2NC(=O)c2ccc(F)cc2C(F)(F)F)C[C@H](C)N1C
# WDR5: WD repeat-containing protein 5 (WDR5, Homo sapiens, UniProt P61964)
# DCAF1: DDB1- and CUL4-associated factor 1 (DCAF1, Homo sapiens, UniProt Q9Y4B6)
# Sequence of UniProt Q9Y4B6 (whole entry, looked up): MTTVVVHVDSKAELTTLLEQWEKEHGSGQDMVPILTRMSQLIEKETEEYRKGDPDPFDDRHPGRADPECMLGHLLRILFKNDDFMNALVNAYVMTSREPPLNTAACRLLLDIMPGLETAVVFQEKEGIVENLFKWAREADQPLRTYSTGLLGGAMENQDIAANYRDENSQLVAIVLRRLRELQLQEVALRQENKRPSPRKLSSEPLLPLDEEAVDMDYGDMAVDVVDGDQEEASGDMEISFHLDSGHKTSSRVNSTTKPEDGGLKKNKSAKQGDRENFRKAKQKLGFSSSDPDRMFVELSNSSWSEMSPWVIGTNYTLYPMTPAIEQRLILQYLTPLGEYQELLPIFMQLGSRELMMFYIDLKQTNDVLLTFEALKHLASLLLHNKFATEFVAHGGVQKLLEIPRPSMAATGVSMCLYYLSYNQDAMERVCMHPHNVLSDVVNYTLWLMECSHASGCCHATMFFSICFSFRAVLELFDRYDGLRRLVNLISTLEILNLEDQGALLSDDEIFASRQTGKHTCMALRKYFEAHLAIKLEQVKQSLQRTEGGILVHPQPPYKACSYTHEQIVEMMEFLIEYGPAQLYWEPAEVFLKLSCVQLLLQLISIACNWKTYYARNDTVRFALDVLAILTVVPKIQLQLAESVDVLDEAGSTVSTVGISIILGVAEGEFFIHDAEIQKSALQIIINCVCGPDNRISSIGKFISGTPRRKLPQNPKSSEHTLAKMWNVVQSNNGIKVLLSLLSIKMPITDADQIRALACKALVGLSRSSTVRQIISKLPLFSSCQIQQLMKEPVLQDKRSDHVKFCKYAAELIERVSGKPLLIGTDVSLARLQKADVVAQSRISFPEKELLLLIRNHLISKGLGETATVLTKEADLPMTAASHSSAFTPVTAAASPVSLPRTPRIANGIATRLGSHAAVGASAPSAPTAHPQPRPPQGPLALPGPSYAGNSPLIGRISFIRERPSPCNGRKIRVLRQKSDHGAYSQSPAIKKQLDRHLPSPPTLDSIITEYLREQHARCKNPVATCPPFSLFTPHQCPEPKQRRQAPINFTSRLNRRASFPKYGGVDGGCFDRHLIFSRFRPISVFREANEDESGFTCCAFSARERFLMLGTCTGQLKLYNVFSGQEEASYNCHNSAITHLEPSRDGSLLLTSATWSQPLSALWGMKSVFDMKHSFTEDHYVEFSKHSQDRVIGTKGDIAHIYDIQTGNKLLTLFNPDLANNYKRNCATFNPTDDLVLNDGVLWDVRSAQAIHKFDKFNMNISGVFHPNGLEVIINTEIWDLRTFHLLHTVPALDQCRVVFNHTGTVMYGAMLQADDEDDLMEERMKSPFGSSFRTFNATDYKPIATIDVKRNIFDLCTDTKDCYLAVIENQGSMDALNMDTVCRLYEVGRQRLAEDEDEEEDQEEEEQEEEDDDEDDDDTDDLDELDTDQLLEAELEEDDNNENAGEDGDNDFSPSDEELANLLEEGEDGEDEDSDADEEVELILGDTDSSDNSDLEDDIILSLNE
target,temperature,SYPRO Orange fluorescence
WDR5,48.2 °C,15600 a.u.
WDR5,43.2 °C,14600 a.u.
WDR5,46 °C,14800 a.u.
WDR5,92.41 °C,51200 a.u.
DCAF1,27.4 °C,7740 a.u.
WDR5,83.01 °C,64800 a.u.
DCAF1,45.4 °C,14600 a.u.
DCAF1,50.2 °C,18200 a.u.
DCAF1,42.6 °C,13200 a.u.
WDR5,91.21 °C,53100 a.u.
DCAF1,88.41 °C,33600 a.u.

# Block 3 — read-out: enzyme activity; mode: inhibitor; technique: Ub-TR-FRET; matrix: HECT domain; tested at: 11.11 µM; direction: higher = more chain formation
# Target: E3 ubiquitin-protein ligase NEDD4, HECT domain (Homo sapiens, UniProt P46934)
# Target sequence (P46934 938-1319, limits assumed): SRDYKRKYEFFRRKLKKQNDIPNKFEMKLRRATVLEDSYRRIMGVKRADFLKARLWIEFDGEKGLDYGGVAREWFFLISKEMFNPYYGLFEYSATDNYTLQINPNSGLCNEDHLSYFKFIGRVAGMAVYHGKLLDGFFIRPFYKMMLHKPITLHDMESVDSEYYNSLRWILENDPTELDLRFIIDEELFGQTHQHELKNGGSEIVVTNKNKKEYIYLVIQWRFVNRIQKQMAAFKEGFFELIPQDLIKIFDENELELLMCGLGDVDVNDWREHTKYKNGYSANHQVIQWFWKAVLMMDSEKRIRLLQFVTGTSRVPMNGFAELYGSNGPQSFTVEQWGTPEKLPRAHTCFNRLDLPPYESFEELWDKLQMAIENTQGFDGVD
Compound,ubiquitin chain formation AUC
CCOC(=O)/C=C/CNCCCCN1c2ccccc2C(=O)N(C)c2ccc(Cl)cc21.O=C(O)/C=C\C(=O)O,16500 a.u. and 18400 a.u. and 16200 a.u.
CCOC(=O)/C=C/CNCCCCN1c2ccccc2COc2ccc(Cl)cc21.O=C(O)/C=C\C(=O)O,10100 a.u. and 10300 a.u.
COC(=O)/C=C/C(=O)NCCCN1c2ccccc2CCc2ccc(Cl)cc21,167000 a.u. and 168000 a.u. and 160000 a.u.
COC(=O)CCCNCCCN1c2ccccc2CCc2ccc(Cl)cc21.COC(=O)CCCNCCCN1c2ccccc2CCc2ccc(Cl)cc21.O=C(O)/C=C/C(=O)O,116000 a.u. and 118000 a.u. and 113000 a.u.
CCONC(=O)/C=C/CNCCCCN1c2ccccc2CCc2ccc(Cl)cc21.O=C(O)/C=C\C(=O)O,4840 a.u. and 4130 a.u. and 4770 a.u. and 4440 a.u. and 4740 a.u. and 4230 a.u.
CNC(=O)/C=C/CNCCCCN1c2ccccc2CCc2ccc(Cl)cc21.Cl,56800 a.u. and 62700 a.u. and 53200 a.u. and 65700 a.u. and 45700 a.u. and 46700 a.u.
CN(C)C/C=C/C(=O)NCCCN1c2ccccc2CCc2ccc(Cl)cc21,114000 a.u. and 112000 a.u. and 117000 a.u.
CCOC(=O)/C=C/CNCCCCN1c2cc(Cl)ccc2CCc2cnn(C)c21.O=C(O)/C=C\C(=O)O,7440 a.u. and 14400 a.u. and 14800 a.u. and 7520 a.u. and 14500 a.u. and 8170 a.u.
N#C/C=C/CNCCCCN1c2ccccc2CCc2ccc(Cl)cc21.O=C(O)/C=C\C(=O)O,11500 a.u. and 9920 a.u. and 10600 a.u. and 9980 a.u. and 10900 a.u. and 10400 a.u.
CCOC(=O)/C=C/CN(CCCCN1c2ccccc2CCc2ccc(Cl)cc21)C(C)C.O=C(O)/C=C\C(=O)O,16800 a.u. and 12700 a.u. and 13300 a.u. and 16200 a.u. and 16500 a.u. and 11900 a.u.

# Block 4 — tested at: 1 µM
# Structure (SMILES): COc1cc(-c2nc3ccc(C(=O)NCCCN4CCN(c5cccc(C)c5C)CC4)cc3n2C2CCC2)cc(OC)c1OC
target,read-out,technique,reference,remaining binding [%]
"RIOK2 (Homo sapiens, UniProt Q9BVS4)",binding,competition with immobilised ligand,,79
"FYN (Homo sapiens, UniProt P06241)",binding,competition with immobilised ligand,,58
"Tyrosine-protein kinase ABL1, non-phosphorylated (ABL1, Homo sapiens, UniProt P00519, F317I)",binding,competition with immobilised ligand,,83
"MAP3K9 (Homo sapiens, UniProt P80192)",binding,competition with immobilised ligand,,69
"CDK11A (Homo sapiens, UniProt Q9UQ88)",binding,competition with immobilised ligand,,95
"CDK19 (Homo sapiens, UniProt Q9BWU1)",,KINOMEscan,control,100
"EGFR (Homo sapiens, UniProt P00533, L858R/T790M)",binding,competition with immobilised ligand,,77
"MYLK3 (Homo sapiens, UniProt Q32MK0)",binding,competition with immobilised ligand,,99
"STK17B (Homo sapiens, UniProt O94768)",binding,competition with immobilised ligand,,100
"MKNK1 (Homo sapiens, UniProt Q9BUB5)",binding,competition with immobilised ligand,,94
"PRKD3 (Homo sapiens, UniProt O94806)",binding,competition with immobilised ligand,,78
"HIPK4 (Homo sapiens, UniProt Q8NE63)",binding,competition with immobilised ligand,,100
"STK24 (Homo sapiens, UniProt Q9Y6E0)",binding,competition with immobilised ligand,,100
"EGFR (Homo sapiens, UniProt P00533, T790M)",binding,competition with immobilised ligand,,86
"ROS1 (Homo sapiens, UniProt P08922)",binding,competition with immobilised ligand,,95
"CDK15 (Homo sapiens, UniProt Q96Q40)",binding,competition with immobilised ligand,,98
"PIP5K1C (Homo sapiens, UniProt O60331)",binding,competition with immobilised ligand,,95
"HIPK1 (Homo sapiens, UniProt Q86Z02)",binding,competition with immobilised ligand,,83
"GRK7 (Homo sapiens, UniProt Q8WTQ7)",binding,competition with immobilised ligand,,94
"IRAK1 (Homo sapiens, UniProt P51617)",binding,competition with immobilised ligand,,89
"MINK1 (Homo sapiens, UniProt Q8N4C8)",binding,competition with immobilised ligand,,92
"FLT1 (Homo sapiens, UniProt P17948)",binding,competition with immobilised ligand,,100
"MET (Homo sapiens, UniProt P08581, Y1235D)",binding,competition with immobilised ligand,,100
"MAST1 (Homo sapiens, UniProt Q9Y2H9)",binding,competition with immobilised ligand,,96
